Measured values pooled from the literature.
± gives the spread as reported.
Organism: Plasmodium falciparum

The IC50 of `COc1ccc(C2NC(C(=O)O)Cc3c2[nH]c2ccccc32)c(Cl)c1` (centres unmarked) is reported as > 5000 nM (parasite growth; Dd2).
`CC(C)(C)NC(=O)[C@@H]1CN(Cc2cnc3occc3c2)CCN1C[C@@H](O)C[C@@H](Cc1ccccc1)C(=O)N[C@H]1c2ccccc2C[C@H]1O` has an IC50 of < 5000 nM (schizont development; INDO; 12 h, early to late schizont).
With `O=C(O)C1Cc2c([nH]c3ccccc23)C(c2ccc(Cl)c(Cl)c2)N1` (centres unmarked) the IC50 was > 10000 nM (parasite growth; Dd2).
With `C[C@H]1[C@@H](OC/C=C\CO[C@H]2O[C@@H]3O[C@@]4(C)CC[C@H]5[C@H](C)CC[C@@H]([C@H]2C)[C@@]35OO4)O[C@@H]2O[C@@]3(C)CC[C@H]4[C@H](C)CC[C@@H]1[C@@]24OO3` the IC50 was < 10 nM (parasite growth; W2; 72 h, drug-resistant strain, blood stage).
With `COc1ccc(C(=O)/C=C/c2cc(CN3CCN(c4ccnc5cc(Cl)ccc45)CC3)c(O)c(OC)c2)c(OC)c1` the IC50 was 300 to 600 nM (parasite growth; D10; blood stage).
For `CCN1CCC(c2ccc(Nc3ccnc4cc(Cl)ccc34)cc2)CC1`, the IC50 was 5 nM (parasite growth, SYBR Green; D6; 72 h, blood stage).
`CC(C)(C)c1ccc(O)c(CNC2CCCCC2)c1` has an IC50 of > 20000 nM (female gamete formation, item: Pfs25; stage V gametocytes; 24 h, compound washed out before gametes).
`O=NN(CCCl)C(=O)Nc1ccc2[nH]c3ccccc3c2c1` gave an IC50 of 5070 nM (parasite growth, [3H]hypoxanthine incorporation; NF54 (chloroquine-sensitive)).
`CCCCCCCc1c(C)[nH]c2cc(OC)ccc2c1=O` has an IC50 of 88 ± 24 nM (oxygen consumption; K1).
The IC50 of `CCCN1CCC(c2ccc(Nc3ccnc4cc(Cl)ccc34)cc2)CC1` is reported as 15 nM (parasite growth, SYBR Green; DD2; 72 h, drug-resistant strain, blood stage).
`CCCOC(=O)C1=C(C)NC2=C(C(=O)CC(c3ccc(OC)c(OC)c3)C2)C1c1ccccc1F` (centres unmarked) gave an IC50 of 139 nM (male gamete formation; stage V gametocytes; 24 h, compound washed out).
For `COc1ccc(C(=O)/C=C/c2ccc(OCc3cn(-c4ccnc5cc(Cl)ccc45)nn3)c(OC)c2)c(OC)c1`, the IC50 was 40 nM (parasite growth; D10; blood stage).
The IC50 of `CCC(C)N1CCC(c2ccc(Nc3ccnc4cc(Cl)ccc34)cc2)CC1` (centres unmarked) is reported as 2.6 nM (parasite growth, SYBR Green; D6; 72 h, blood stage).
`C=C(C)C1CCC2(CO)CCC3(C)C(CCC4C5(C)CCC(O)C(C)(COC(=O)/C=C/c6ccc(O)cc6)C5CCC43C)C12` (centres unmarked) has an IC50 of 260 ± 10 nM (parasite growth; Dd2 drug-resistant; 72 h).
With `CCN1CCOCC1c1ccc(Nc2c(-c3ccc(OC(F)(F)F)cc3)cnc3cc(Cl)ccc23)cc1` (centres unmarked) the IC50 was ≥ 250 nM (parasite growth, SYBR Green; DD2; 72 h, drug-resistant strain, blood stage).
`COc1cc(CO)c(-c2ccc3c(c2O)[C@@H](C)N[C@H](C)C3)c2cccc(O)c12` has an IC50 of 8 nM (parasite growth, SYBR Green; NF54; 96 h, blood stage).
The IC50 of `CCN1CCOCC1c1ccc(Nc2ccnc3cc(Cl)ccc23)cc1` (centres unmarked) is reported as ≥ 250 nM (parasite growth, SYBR Green; DD2; 72 h, drug-resistant strain, blood stage).
With `C[C@H]1[C@@H](OC/C=C\CO)O[C@@H]2O[C@@]3(C)CC[C@H]4[C@H](C)CC[C@@H]1[C@@]24OO3` the IC50 was < 10 nM (parasite growth; W2; 72 h, drug-resistant strain, blood stage).
`CCN1CCN(c2ccc(Nc3ccnc4cc(Cl)c(Cl)cc34)cc2)CC1` gave an IC50 of 18 nM (parasite growth, SYBR Green; D6; 72 h, blood stage).
`C[C@H]1[C@H](OC(=O)CCC(=O)O)O[C@@H]2O[C@@]3(C)CC[C@H]4[C@H](C)CC[C@@H]1[C@@]24OO3` has an IC50 of 4 nM (parasite growth, [3H]hypoxanthine incorporation; NF54; 72 h).

Excerpt of the above:
`C[C@H]1[C@H](OC(=O)CCC(=O)O)O[C@@H]2O[C@@]3(C)CC[C@H]4[C@H](C)CC[C@@H]1[C@@]24OO3` has an IC50 of 4 nM (parasite growth, [3H]hypoxanthine incorporation; NF54; 72 h).
